Published values gathered from unrelated publications.
A part holds a random share of what one study measured. Substitutions count along the parent as printed.

Series 1
Target: CCNA1, cyclin fold, Cln2 fusion (human)
Method: yeast growth competition, sequencing
Medium: yeast
Notes: weak parent motif
Relative to: not given
Reading: higher = stronger binding
Starting sequence: PLK5 docking peptide (human); IFRKVGQRLLTQC
Variant	normalised enrichment score
F2A	0.161
C13A	0.000436
I1A	-0.28
G6A	-0.765
R3A	-0.307
R8A	0.238

Series 2
Target: ABI1, truncated, D143A, DHFR fusion (Arabidopsis thaliana)
Method: DHFR PCA, deep sequencing
Medium: yeast
Notes: methotrexate growth selection, single substitutions
Added: (+)-ABA 0.032 µM
Relative to: wild-type fitted maximum
Reading: higher = stronger binding
Starting sequence: PYL1, truncated, DHFR fusion (Arabidopsis thaliana); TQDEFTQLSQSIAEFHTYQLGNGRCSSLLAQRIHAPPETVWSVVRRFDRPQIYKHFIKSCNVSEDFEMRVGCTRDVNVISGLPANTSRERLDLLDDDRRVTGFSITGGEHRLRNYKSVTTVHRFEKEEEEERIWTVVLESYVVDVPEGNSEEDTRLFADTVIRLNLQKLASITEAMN; partner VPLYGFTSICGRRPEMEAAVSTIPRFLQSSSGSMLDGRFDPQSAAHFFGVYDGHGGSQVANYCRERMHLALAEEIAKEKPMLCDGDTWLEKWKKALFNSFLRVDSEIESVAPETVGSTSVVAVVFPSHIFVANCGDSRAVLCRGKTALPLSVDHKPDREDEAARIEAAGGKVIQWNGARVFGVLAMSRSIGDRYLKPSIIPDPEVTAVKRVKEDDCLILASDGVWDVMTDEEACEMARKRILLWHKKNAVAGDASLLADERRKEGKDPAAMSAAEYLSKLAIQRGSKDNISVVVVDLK
Variant	relative binding score [%]
E128G	65.9
S9V	23.6
Y115S	4.54
A30K	9.3

Series 3
Target: PABPC1L2, full length, GST fusion (mouse, UniProt A0ABA7IW68)
Method: RNAcompete
Form: RNA
Medium: in vitro
Concentration: 20 nM
Notes: 7-mer, probes averaged, single round
Relative to: mean of 7-mers
Reading: higher = stronger binding
Construct (chain): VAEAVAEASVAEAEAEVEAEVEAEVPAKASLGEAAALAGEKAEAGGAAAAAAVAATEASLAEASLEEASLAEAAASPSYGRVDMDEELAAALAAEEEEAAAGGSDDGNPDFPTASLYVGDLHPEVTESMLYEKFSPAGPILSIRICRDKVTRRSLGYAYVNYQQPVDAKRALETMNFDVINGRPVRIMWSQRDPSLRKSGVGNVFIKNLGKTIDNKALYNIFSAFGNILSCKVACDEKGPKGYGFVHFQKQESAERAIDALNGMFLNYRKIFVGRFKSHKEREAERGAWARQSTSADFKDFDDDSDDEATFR
Strand	7-mer Z-score
AGUUAUC	-0.133
UUUGAAC	-0.258
AAUCGAU	0.267
GAAAACU	2.24
GUGAAUC	-0.161
AGUUCUG	-0.331

Single results of other studies
Molecule	target	test	test system	conditions	scale	measurement	result
PhoQ, residues 284 288 289 292 302 303 AGGCYF	PhoP, residues 12 14 15 18 19 NNFVT (Escherichia coli, UniProt P23836)	Sort-seq, measured: YFP reporter	E. coli	PhoQ-PhoP variant library, added: 10 µM Mg2+	relative to: high Mg2+ state, higher = stronger signaling	fold induction	0.933
